Assay results gathered from unrelated publications.
Protocols differ between the studies behind these lines. ± marks the error that the study gave.
TDP1: Tyrosyl-DNA phosphodiesterase 1 (TDP1, Homo sapiens, UniProt Q9NUW8)
Sequence of UniProt Q9NUW8 (whole entry, looked up): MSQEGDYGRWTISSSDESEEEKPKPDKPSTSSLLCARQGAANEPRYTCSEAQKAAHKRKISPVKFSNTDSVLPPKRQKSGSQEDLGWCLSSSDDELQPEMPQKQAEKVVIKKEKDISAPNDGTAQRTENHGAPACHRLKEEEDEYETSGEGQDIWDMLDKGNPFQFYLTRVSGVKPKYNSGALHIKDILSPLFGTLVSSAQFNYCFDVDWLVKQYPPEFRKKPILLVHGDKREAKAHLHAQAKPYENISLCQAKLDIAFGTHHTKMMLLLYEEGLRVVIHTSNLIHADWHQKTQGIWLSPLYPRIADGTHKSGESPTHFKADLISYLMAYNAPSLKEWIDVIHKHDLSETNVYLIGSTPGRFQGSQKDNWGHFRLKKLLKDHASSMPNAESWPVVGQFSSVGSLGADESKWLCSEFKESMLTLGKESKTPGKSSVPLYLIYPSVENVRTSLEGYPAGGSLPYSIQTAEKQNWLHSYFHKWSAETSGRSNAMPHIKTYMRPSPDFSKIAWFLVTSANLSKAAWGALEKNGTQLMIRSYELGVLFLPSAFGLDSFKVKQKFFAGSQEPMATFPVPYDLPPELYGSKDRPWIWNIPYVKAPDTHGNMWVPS

| SMILES | tested on | assay | conditions | measurement | result |
| --- | --- | --- | --- | --- | --- |
| CN1CCN(C(=O)c2ccnc(N3Cc4cn(Cc5ccc(F)cc5)nc4C3)n2)CC1 | HEK293 expressing GluA1 and GluA2 | glutamate excitotoxic cell death, CellTox Green | with: glutamate | IC50 | 0.02 µM |
| COc1cc(-c2cc(C(C)=O)n3ccccc23)c(OC)cc1C(=O)N1CCOCC1 | MV4-11 | cell growth or viability, ATP luminescence | – | IC50 | 3.9 µM |
| NC(=O)c1ccc(-c2ccccc2Cl)c2c3c([nH]c12)CC[C@H](N)C3 | RKO | cell growth or viability | – | IC50 | 0.00952 µM |
| Cc1cc(C(=O)N2CCNCCNCCNCC2)c(O)c(C(=O)N2CCNCCNCCNCC2)c1 | 2C6 normal pancreas | cell viability, MTT | 24 h | IC50 | > 10000 µM |
| CN(C)C(=O)c1cccc(N2Cc3cn(Cc4cc(Cl)cc(Cl)c4)nc3C2)c1 | HEK293 expressing GluA1 and GluA2 | glutamate excitotoxic cell death, CellTox Green | with: glutamate | IC50 | 0.055 µM |
| Cc1sc2c(c1C)C(c1ccc(Cl)cc1)=N[C@@H](CC(=O)NCCCCCCCCC(=O)N1CCN(C(=O)c3cc(Cc4n[nH]c(=O)c5ccccc45)ccc3F)CC1)c1nnc(C)n1-2 | SU-DHL-5 | cell growth or viability, ATP luminescence | 72 h | IC50 | 0.0147 µM |
| CCOc1cncc(-c2ccc(NC(=O)C3(c4ccnc(NS(=O)(=O)C5CC5)n4)CCOCC3)nc2)n1 | CAL-27 | cell proliferation, CellTiter-Glo | 72 h | IC50 | 2.68 µM |
| Cc1ccc(C(C=NOCc2ccc(-c3nc4cc(-c5ccccc5)ccn4c3Nc3ccc(C(=O)O)cc3)cc2)=CN(C)C)cc1 (mixture of isomers) | TDP1 | enzyme activity, inhibitor | 100 µM, unpurified compound | inhibition | 54.2% |
| Cc1ccc([N+](=O)[O-])cc1S(=O)(=O)N(C)/N=C/c1cnc2ccc(Br)cn12 | HCC 2998 | cell viability, MTS | – | IC50 | > 10 µM |
| O=c1cc(-c2ccccc2)oc2cc(O)c(O)c([O][Ga+][O]c3c(O)c(O)cc4oc(-c5ccccc5)cc(=O)c34)c12 | LO2 | cell viability, MTT | – | IC50 | > 200 µM |
| CN(C)C(=O)c1cccc(N2Cc3cn(CC4CC4)nc3C2)c1 | HEK293 expressing GluA1 and GluA2 | glutamate excitotoxic cell death, CellTox Green | with: glutamate | IC50 | 0.036 µM |
| CCOC(=O)/C=C1\S/C(=N\N=C\c2cccc3cc4ccccc4nc23)N(c2cccc(OC)c2)C1=O | SK-BR-3 | cell growth or viability, MTT | 48 h | IC50 | > 50 µM |
| O=C(O)c1ccc(Nc2c(-c3ccc(CON=Cc4ccc(N5CCCCC5)o4)cc3)nc3cc(-c4ccccc4)ccn23)cc1 (mixture of isomers) | TDP1 | enzyme activity, inhibitor | 100 µM, unpurified compound | inhibition | 92.6% |
| CNS(=O)(=O)Nc1nccc(Cc2c(C)c3ccc(Oc4ncccc4F)cc3oc2=O)c1F | HCC95 | cell viability | 7 days | IC50 | > 1 µM |
| CN(C)C(=O)c1cncc(N2Cc3cn(Cc4cccc(F)c4)nc3C2)n1 | HEK293 expressing GluA1 and GluA2 | glutamate excitotoxic cell death, CellTox Green | with: glutamate | IC50 | > 5 µM |
| CCOC(=O)/C=C1\S/C(=N\N=C\c2cccc3cc4ccccc4nc23)N(CC(C)C)C1=O | SK-BR-3 | cell growth or viability, MTT | 48 h | IC50 | > 50 µM |
| CC(C)c1ccc(N(C)c2ccc3c(c2)OCC[C@H]3CNc2cnccc2C(=O)O)cc1 | NCI-H1944 | cell growth or viability, ATP luminescence | 7 days | IC50 | 0.0163 µM |
| O=C1C=CC2(Oc3cccc4cccc(c34)O2)C2=C1C(O)CCC2O (stereo not drawn) | OVCAR-3 | cell growth or viability, resazurin | 72 h | IC50 | 2 µM |
| COC(=O)N1c2ccc3c(nc(Cc4ccccc4)n3[C@@H]3CCC[C@@H](C(=O)O)C3)c2CC[C@@H]1C | HCC70 | cell growth or viability, ATP luminescence | 10 days | IC50 | 1.79 µM |
| COc1cc(-c2cn(C)c(=O)c3cnccc23)c(OC)cc1CN(C)C | MV4-11 | cell growth or viability, ATP luminescence | – | IC50 | 17.8 µM |

| SMILES | tested on | assay | conditions | measurement | result |
| --- | --- | --- | --- | --- | --- |
| Cn1ncc(-c2ccc3c(=O)[nH]nc(CN)c3c2)c1-c1c(F)c(Cl)cc(OC2CC2)c1C#N | YCC2 | cell viability | 120 h, relative IC50 | IC50 | 1.61 µM |
| CCOC(=O)/C=C1\S/C(=N\N=C\c2cccc3cc4ccccc4nc23)N(c2ccccc2)C1=O | SK-BR-3 | cell growth or viability, MTT | 48 h | IC50 | > 50 µM |
| CN(C)C(=O)c1ccnc(N2Cc3cn(Cc4ccc(F)c(Cl)c4)nc3C2)n1 | HEK293 expressing GluA1 and GluA2 | glutamate excitotoxic cell death, CellTox Green | with: glutamate | IC50 | 0.013 µM |
| CO[C@@H]1[C@@H](OC(=O)c2ccc(C)[nH]2)[C@@H](O)[C@H](Oc2ccc3c(O)c(NC(=O)c4c[nH]c(C(=O)Nc5c(O)c6ccc(O[C@@H]7OC(C)(C)[C@H](OC)[C@@H](OC(=O)c8ccc(C)[nH]8)[C@H]7O)c(C)c6oc5=O)c4C)c(=O)oc3c2C)OC1(C)C | 143B | cell growth or viability, ATP luminescence | 72 h | IC50 | ~1.2 µM |
| COc1cc(-c2cc(C(C)=O)n3ccccc23)c(OC)cc1CN(C)C | MV4-11 | cell growth or viability, ATP luminescence | – | IC50 | 4.35 µM |
| CN(C)CCOc1cc(NC(=O)c2cccc(C(=O)Nc3cc(OCCN(C)C)c4ccccc4n3)n2)nc2ccccc12 | HT-1080 | cell growth or viability, ATP luminescence | 72 h | IC50 | 3.3 µM |
| CC(CCC(=O)OCc1cccc(CN(C(=O)OCc2ccc(B3OC(C)(C)C(C)(C)O3)cc2)[c-]2cccc2)c1)C1CCC2C3CCC4CC(O)CCC4(C)C3CCC12C.[Fe+2].c1cc[cH-]c1 (stereo not drawn) | BL2 | cell growth or viability, MTT | 48 h | IC50 | 31 µM |
| C/C(=N\N=C1/NC(=O)CS1)c1c(O)c2ccccc2oc1=O | human Skin fibroblast | cell growth or viability, MTT | 48 h | IC50 | > 100 µM |
| CN1CCC(N[C@@H]2CCc3[nH]c4c(C(N)=O)ccc(-c5ccccc5Cl)c4c3C2)CC1 | SGC-7901 | cell growth or viability | – | IC50 | 0.0133 µM |
| Cc1ccc(C(C)C)cc1.Cc1ccc(C(C)C)cc1.Cc1ccc(C(C)C)cc1.Cc1ccc(C(C)C)cc1.O=S(=O)(O)C(F)(F)F.O=S(=O)(O)C(F)(F)F.O=S(=O)(O)C(F)(F)F.O=S(=O)(O)C(F)(F)F.c1ccc2c3c4ccccc4c(c2c1)-c1cn(nn1)-c1cc[n+](cc1)[Ru-]1[O]c2c4ccccc4c4c5c(c6ccccc6c(c25)=[O+]1)=[O+][Ru-]([O]4)[n+]1ccc(cc1)-n1cc(nn1)-c1c2ccccc2c(c2ccccc12)-c1cn(nn1)-c1cc[n+](cc1)[Ru-]1[O]c2c4ccccc4c4c5c(c6ccccc6c(c25)=[O+]1)=[O+][Ru-]([O]4)[n+]1ccc(cc1)-n1cc-3nn1 | HCT-15 | cell growth or viability, MTT | 24 h | IC50 | 8.2 µM |
| CCN(C(=O)c1cc(F)ccc1Oc1nncnc1N1CCC2(C1)CN(C(CCCN(C)CCOC)C(C)C)C2)C(C)C (stereo not drawn) | MOLM-14 (KMT2A-AF9, FLT3-ITD) | mRNA level, QuantiGene multiplex, measured: PBX3 | concentration not given | IC50 | > 3 µM |
| C=CC(=O)N1CCCC(n2c(=O)c3ncccc3n(Cc3ccc(Oc4ccccc4)cc3)c2=O)C1 (stereo not drawn) | HBL1 | cell growth or viability, MTT | 72 h | IC50 | 1.7 µM |
| O=[C]=[Mn-2]12(=[C]=O)(=[C]=O)[O]c3cc4c(cc3=[N+]1CCc1ccccc1)[O][Mn-2](=[C]=O)(=[C]=O)(=[C]=O)([N+]=4CCc1ccccc1)[n+]1ccc(cc1)C(=O)Oc1ccccc1OC(=O)c1cc[n+]2cc1 | HCT-15 | cell growth, MTT | 48 h, LED light photolysis 1 h | IC50 | 3.13 ± 0.41 µM |
| CN(C(=O)c1ccnc(N2Cc3cn(Cc4ccc(F)cc4)nc3C2)n1)C1CCCC1 | HEK293 expressing GluA1 and GluA2 | glutamate excitotoxic cell death, CellTox Green | with: glutamate | IC50 | 0.054 µM |
| CCn1nccc1C1CCCN1S(=O)(=O)c1cc(C)c(C)cc1C (stereo not drawn) | human PBMC monocytes | phagocytosis of anti-D RBCs | – | IC50 | 25.5 ± 6.7 µM |
| CN(C)C(=O)c1cncc(N2Cc3cn(CC4CCCCC4)nc3C2)n1 | HEK293 expressing GluA1 and GluA2 | glutamate excitotoxic cell death, CellTox Green | with: glutamate | IC50 | 0.167 µM |
| O=C(NCc1cc(F)cc(F)c1)[C@@]1(O)CCN(c2ccc3[nH]ccc3c2)C1=O | OVXF1023 | colony formation | – | IC50 | 0.064 µM |
| CN(C)C(=O)c1cccc(N2Cc3cn(Cc4cc(F)cc(F)c4)nc3C2)c1 | HEK293 expressing GluA1 and GluA2 | glutamate excitotoxic cell death, CellTox Green | with: glutamate | IC50 | 0.009 µM |
| CO[C@@H](C[C@H]1C(C)=CC[C@@H]2[C@]3(C)C[C@H](O[C@@H]4O[C@@H](C)[C@H](OC(=O)c5cccc(O)c5)[C@@H](O)[C@H]4O)[C@@H](O)C(C)(C)[C@H]3CC[C@]21C)[C@H](N)C(=O)O | THP-29 | cell viability, CCK-8 | 72 h | IC50 | 6.06 µM |
